# Experimental data from different studies.
# “And” joins repeats or separate records; there may be more than shown. ± gives the spread as reported.
Compound,test,system,conditions,scale,endpoint,result
CC(C)=CC[C@@H](O)C1=CC(=O)c2c(O)ccc(O)c2C1=O,,plasma,"500 ng/mL, 3 d, -80 °C, storage stability",,measured concentration,482 ± 9.19 ng/mL
C=CC(=O)Nc1cc(Nc2nccc(-c3cn(C4CC4)c4ccccc34)n2)c(OC)cc1N(C)CCN(C)C,,"BALB/c nude mouse, LU0387 xenograft, blood","oral, 40 mg/kg",,NRBC#,0.022 ± 0.0049 g/L
NCc1cc2c(cc1F)C(=O)N(C1CCC(=O)NC1=O)C2 (stereo not drawn),,"male Beagle dog, whole blood","3 h, together with: SSAO/VAP-1 inhibitor",,remaining compound,> 95%
C[C@H]1O[C@@H](O[C@H]2[C@@H](O)C[C@H](O[C@H]3[C@@H](O)C[C@H](O[C@H]4CC[C@@]5(C)[C@H](CC[C@@H]6[C@@H]5C[C@@H](O)[C@]5(C)[C@@H](C7=CC(=O)OC7)CC[C@]65O)C4)O[C@@H]3C)O[C@@H]2C)C[C@H](O)[C@@H]1O,measured: nausea,healthy men,"oral, dose not given, 8 days, treatment-emergent, crossover trial",,subjects with adverse event,0%
O=C(O)CSc1nnc(Br)n1-c1ccc(C2CC2)c2ccccc12,,"KM mouse, chronic hyperuricaemia model","dose not given, day 24",,body weight,32.2 g and 36 g and 37.8 g and 37.3 g and 34.5 g and 42.1 g
FC(F)(F)c1ccc(CNc2ccc(Cc3c[nH]c4ncc(Cl)cc34)cn2)cn1,measured: Anemia,"patients with advanced solid tumours, non-TGCT cohort","oral, 1000 mg/day, any grade",,treatment-related adverse events,10%
O=C(O)CCC(=O)O.[2H]C([2H])([2H])Oc1cc(C)c2[nH]ccc2c1CN1CC[C@@H](C2CC2)C[C@H]1c1ccc(C(=O)O)cc1,multiple ascending dose,healthy Chinese subjects,200 mg once daily,,subjects with sinus bradycardia TEAE,12.5%
COc1cc(C(=O)N2CCC3(CC2)CC(=O)c2c(cnn2C(C)C)C3)cc(-c2ccc(C(=O)O)cc2)n1,,"human, fasting serum","40 mg once daily, day 13, adjusted geometric mean",reference: placebo,total cholesterol change from baseline,4.8%
CC(C)n1c(Nc2cccnc2)nc2cnc(Nc3ccc(N4CCN(C)CC4)cc3)nc21,measured: aspartate aminotransferase increased,healthy male subjects,"oral, 100 mg, study, together with: gemfibrozil",,subjects with adverse event,28.6%
O=C1NCCc2nc(OCc3cccc(F)c3)ccc21,measured: Mydriasis,"Sprague-Dawley rat, male","oral, 100 mg/kg, 1 h, score 0 none to 2 full",direction not given,Irwin test score,0.4
Cc1cccc(CNC(=O)c2cn(CCNC(=O)c3ccccc3S)c3cc4c(cc3c2=O)OC(F)(F)O4)n1,,"Sprague-Dawley rat, male, whole blood","intramuscular, 3 mg/kg of parent drug",,half-life,6.27 h
C=CCN1CC(=O)N2[C@@H](Cc3ccc(O)cc3F)C(=O)N(Cc3cccc(N4CC(N5CCN(CC)CC5)C4)n3)C[C@@H]2N1C(=O)NCc1ccccc1,,advanced solid tumour patients,"oral, 20 mg twice daily, grade ≥3, dose-escalation",,treatment-related vomiting,0%
CCn1c(=O)c(-c2cc(NC(=O)Nc3ccccc3)c(F)cc2Br)cc2cnc(N)cc21,ultracentrifugation,"human, hepatic impairment moderate or matched healthy, plasma","oral, 50 mg single dose",,unbound fraction at Cmax,0.134%
NC1(C(=O)N[C@@H](CCO)c2ccc(Cl)cc2)CCN(c2nc[nH]c3nccc2-3)CC1,,metastatic CRPC patients,"400 mg b.i.d., grade 3 to 4, treatment-related, together with: enzalutamide 160 mg daily",,incidence of Fatigue,0%
Cc1cc(-c2ccc3cc[nH]c(=O)c3c2)ccc1O[C@H]1O[C@H](CO)[C@@H](O)[C@H](O)[C@@H]1O,,"male Sprague-Dawley rat, urine","oral, 10 mg/kg, 24 h, mean",reference: dose,urinary recovery,0.13%
CCOCC(=O)N1CCC[C@H](C(=O)NCc2nc(-c3ccc(C)nc3)cs2)C1,,"Sprague-Dawley rat, male, plasma","oral, 3 mg/kg",,unbound AUC,2.2 µM·h
CC(C)Oc1c(NC(=O)c2ccc(NC(=O)[C@H](CC(N)=O)NC(=O)c3ccc(NC(=O)c4ccc(C#N)cc4)cc3)cc2)ccc(C(=O)Nc2ccc(C(=O)O)cc2)c1O,,"CD-1 mice, male, plasma","subcutaneous, 5 mg/kg single dose",,V/F,22.8 ± 3.1 L/kg
COc1ncc(-c2nc3c(n2C(C)C)[C@H](c2ccc(Cl)cc2)N(c2cc(Cl)cn(C)c2=O)C3=O)c(OC)n1,,"human patients, plasma","oral, 12.5 mg, high-dose arm, cycle 2 day 1",,median Tmax,2 h
CC(C)(C(=O)N1CCOc2c(C#N)cncc2C1)C(F)F,,"human, both sexes","oral, 40 mg single dose",,subjects with tachycardia TEAE,0%
N=C(N)NCCNC(=O)C1(Nc2ccccc2)CCN(Cc2ccccc2)CC1,,"female Sprague-Dawley rats, plasma","intravenous, 2.5 mg/kg",,mean residence time,0.1 h
CCc1cc(C(=O)NC)c2nccc(N3CCc4c(cc(Cn5ccnc5)cc4-c4cn(C)nc4C(F)(F)F)C3=O)c2c1,,Sprague Dawley rats,"oral, 50 mg/kg once daily, 7 days",,mean corpuscular volume,68.1 ± 2.64 fL
CCO[C@H]1CCN(Cc2c(OC)cc(C)c3[nH]ccc23)[C@H](c2ccc(C(=O)O)cc2)C1,,"healthy volunteers, plasma","oral, 200 mg single dose, median",,unbound half-life,12.9 h
O=C(O)c1cccc(C(=O)O)c1,,betaine/propylene glycol DES-water,DES mass fraction 0.20,,apparent dissolution enthalpy,5.03 kcal/mol
CCCCCCCCCCCCCCCC(=O)N[C@@H](CCC(=O)NCCCC[C@@H]1NC(=O)[C@H]([C@@H](C)CC)NC(=O)[C@@H](NC(=O)[C@@H]2CCCN2C(=O)[C@H](Cc2ccccc2)NC(=O)[C@H](Cc2c[nH]cn2)NC(=O)[C@@H](NC(=O)[C@H](CC(=O)O)NC(=O)CC(C)C)[C@@H](C)O)CSSC[C@@H](C(=O)N[C@@H](CCCCN)C(N)=O)NC(=O)CNC(=O)[C@H](CCCCN)NC(=O)[C@H](CO)NC(=O)[C@H](CCCNC(=N)N)NC(=O)[C@@H]2CCCN2C(=O)[C@H](CCC(=O)O)NC(=O)[C@H](Cc2ccccc2)NC1=O)C(=O)O,,"healthy volunteers, plasma","subcutaneous, 30 mg",reference: parent plus metabolites,AUC(0-inf) share of total,58.2 ± 4.16%
N#Cc1ccc2c(c1)[C@H]1CCCN(C(=O)c3ccc4[nH]cnc4c3)[C@H]1C2,,human,"240 mg, end of trial",,maximum ACTH level,10.8 pmol/L
Cc1ccc([C@@H]2O[C@H](CO)[C@@H](O)[C@H](O)[C@H]2O)cc1Cc1ccc(-c2ccc(F)cc2)s1,,Japanese type 2 diabetes patients,"400 mg, day 15, 24 h urine collection",reference: baseline,urinary chloride excretion change,9.08 mEq
C[C@H](CCC(=O)NCC(=O)O)[C@H]1CC[C@H]2[C@@H]3CC[C@@H]4C[C@H](O)CC[C@]4(C)[C@H]3C[C@H](O)[C@]12C,,"human, plasma",endogenous baseline diurnal,reference: daily mean concentration,relative peak deviation,189 ± 19%
Cn1cc([C@H]2C[C@H]3CSC(N)=N[C@@]3(c3ccc(F)cc3F)CO2)cn1,,"male 129/SVE mouse, plasma","subcutaneous, 50 mg/kg, 9 h",,plasma concentration,3.31 µM
Cl.[2H]C([2H])([2H])CC(=O)c1cnc(NC(=O)C2CC2)cc1Nc1cccc(-c2ncn(C([2H])([2H])[2H])n2)c1OC,,"human, fed, multiple dose","oral, 60 mg once daily, tablet, day 1, geometric mean",,AUC(0-tau),2930 ng·h/mL
CNC(=O)c1ccc(-c2cnc3ncc(Cc4ccc5ncccc5c4)n3n2)cc1F,"measured: Fatigue, all grades",hepatocellular carcinoma patients,"oral, 600 mg twice daily, expansion cohort, any causality",,patients with adverse event,27%
CNCc1ccc(-c2[nH]c3cc(F)cc4c3c2CCNC4=O)cc1,,patients,"oral, 600 mg twice daily, grade 5",,cough incidence,0%
COc1cc2c3c(n(CCCN4CCOCC4)c(=O)c2cc1OC)-c1cc2c(cc1C3=O)OCO2,,"beagle dog, female, plasma","oral, 860 mg/m^2, gelatin capsule",,AUC(0-inf),19.4 ng·h/mL and 17200 ng·h/mL
COCCOc1cnc2ccn([C@H](C)c3nnc4c(F)cc(-c5cnn(C)c5)cn34)c(=O)c2c1,,"patients, plasma","oral, 200 mg once daily, day 1",,Cmax,3520 ng/mL
CCOc1c([C@H](C)n2nc(C)c3c(N)ncnc32)cc(Cl)c(F)c1[C@@H]1CNC(=O)C1,,"patients, monotherapy","oral, 45 mg once daily, cycle 1 day 15",,half-life,11.2 ± 2.1 h
Nc1ncnc2c1ncn2[C@H]1C[C@@H]2OP(=O)(O)OC[C@H]3O[C@@H](n4cnc5c(N)ncnc54)C[C@@H]3OP(=O)(O)OC[C@H]2O1,,"non-tumor-bearing mice, blood","intravenous, 1 mg/kg, toxicity study",,MCHC,591.8 ± 5.91 g/L
CC(C)[C@H](C(=O)Nc1ccc(C(=O)NO)cc1)c1ccccc1,,whole blood,"1000 ng/mL, 3 h, 4 °C, stability on ice",,measured concentration,1060 ng/mL
O=C(O)CCCCCCCCCCCCCCCCC(=O)O,,"human, plasma",endogenous control diurnal,reference: daily mean concentration,relative peak deviation,40.5 ± 8.6%
Cc1cc2sc(N)nc2c2cccnc12,,"female BALB/c mice, plasma","i.p., 30 mg/kg",,dose-normalised Cmax,210 kg·ng/mL/mg
C[C@@]1(c2cc(NC(=O)c3ccc(C#N)cn3)ccc2F)C=CSC(N)=N1,,"elderly humans, both sexes, plasma","oral, 90 mg single dose",,dose-normalised AUC(0-inf),99.4 ng·h/mL
Cc1ccc(Sc2ccccc2N2CCNCC2)c(C)c1,measured: thermal burn,healthy adult women,"oral, 10 mg daily, 12 days",,participants with TEAE,0%
CCN1/C(=C/C(C)=O)Sc2ccc(F)cc21,,cynomolgus monkey,"oral, 30 mg/kg, 4 h post-dose",reference: pre-dose,systolic blood pressure change,98.9 ± 4.9%
CCCn1cc(C)c2c(=O)[nH]c(-c3cc(S(=O)(=O)N4CCN(CC)CC4)ccc3OCC)nc21,,human,"concentration not given, treatment-emergent adverse event",,blood pressure increased,16.7%
O=C(O)c1cc(O)c(O)c(O)c1,LC-MS/MS,"male Ross broilers, serum","oral, 0.49 mg/kg BW",,elimination rate constant,7.78e-05 ± 6.39e-05 s⁻¹
NS(=O)(=O)c1ccc(-n2nc(C(F)(F)F)cc2-c2ccc(CO)cc2)cc1,,Sprague-Dawley rat,"oral, 20 mg/kg of celecoxib, 4 h",,blood-to-plasma ratio,12.9
CO[C@H]1C[C@@H]2CC[C@@H](C)[C@@](O)(O2)C(=O)C(=O)N2CCCC[C@H]2C(=O)O[C@H]([C@H](C)C[C@@H]2CC[C@@H](OC(=O)NCCOCCOCCOCCOCCOCCOCCOCCOCCC(=O)N3CCc4cc(Cn5nc(-c6ccc7oc(N)nc7c6)c6c(N)ncnc65)ccc4C3)[C@H](OC)C2)C[C@@H](O)[C@H](C)/C=C(\C)[C@@H](O)[C@@H](OC)C(=O)[C@H](C)C[C@H](C)/C=C/C=C/C=C/1C,,"human patients, plasma","intravenous, 10 mg, cycle 1 day 1, weekly dosing, 1 h infusion, arithmetic mean",,Tmax,1 h
COc1ccc2c(c1)CN(C(=O)CCN1CCC(Cc3ccccc3)CC1)CC[S@@+]2[O-],telemetry,conscious dogs,"intravenous, up to 8 mg/kg",,blood pressure and ECG intervals,no effect
COc1cc(Nc2ncc3c(n2)-c2ccc(Cl)cc2C(c2c(F)cccc2OC)=NC3)ccc1C(=O)O,"measured: Nausea, grade 1","cancer patients, phase 1/2","oral, dose not given, together with: pembrolizumab",,patients with adverse event,21%
CCc1c(-c2ccccc2)c(-c2ccccc2)nn1-c1ccccc1-c1cccc(OCC(=O)O)c1,,Sprague-Dawley rat,"oral, dose not given",,Tlast,24 h
CN[C@H](CC(C)C)C(=O)N[C@H]1C(=O)N[C@@H](CC(N)=O)C(=O)N[C@H]2C(=O)N[C@H]3C(=O)N[C@H](C(=O)N[C@H](C(=O)O)c4cc(O)cc(O)c4-c4cc3ccc4O)[C@H](O)c3ccc(c(Cl)c3)Oc3cc2cc(c3O[C@@H]2O[C@H](CO)[C@@H](O)[C@H](O)[C@H]2O[C@H]2C[C@](C)(N)[C@H](O)[C@H](C)O2)Oc2ccc(cc2Cl)[C@H]1O,Welch's t-test,"C57BL/6N mice, faeces","oral, 1 vs 20 mg/mL",reference: high dose over low dose,dose-normalised AUC,no effect
O=C1COCCN1c1ccc(CO[C@@H]2COc3nc([N+](=O)[O-])cn3C2)cc1,,aqueous buffer,pH 7.4,,aqueous solubility,28.4 µg/mL
Cc1cc(C)c(CNC(=O)c2cc(Cl)c3c(c2C)O[C@@](C)([C@H]2CC[C@H](N(C)C)CC2)O3)c(=O)[nH]1,"CTCAE v4.0, measured: blood bilirubin increased",human relapsed/refractory NHL,"oral, 200 mg once daily, onset after cycle 1 day 1, overall treatment period",,patients with grade ≥3 TEAE,4.2%
C[Si]1(C)O[Si](C)(C)O[Si](C)(C)O[Si](C)(C)O[Si](C)(C)O1,,1-octanol/water,"0.001-0.003 µg/L in water, 34.8 °C",,log KOW,8.47
O=C(Nc1cnccc1Cl)N1CCN(Cc2ccc3c(c2)OC(F)(F)O3)CC1,,"elderly men and women, plasma","oral, 100 mg once daily, day 10, normalized to 10 mg",,dose-normalized AUC(0-tau),937 ng·h/mL
C=CC(=O)NC1CCN(c2ncc3ncnc(Nc4ccc(Oc5ccc6c(c5)ncn6C)c(C)c4)c3n2)CC1,,healthy male humans,"oral, 240 mg",,participants with nasal congestion TEAE,6.3%
